Measured values gathered from unrelated publications.
Lines come from different studies, so protocols differ. Values joined by “and” are separate records of one study, mostly repeats; a detail may differ. ± gives the spread as reported.

For CN(C)C(=O)Oc1cccc([N+](C)(C)C)c1, the train-of-four ratio was 3.96 (neuromuscular block reversal; rat; dose not given, 1 (unit not given), together with: cisatracurium; relative to: T1 twitch).
For CN1CC[C@@H](c2c(O)cc(O)c3c(=O)cc(-c4ccc(C(F)(F)F)cc4Cl)oc23)[C@@H]1CO, “significantly deregulated genes” read 50 genes (RNA-seq; PBMC, human, AML; 100 to 200 mg, 8 days, 6 patients).
For c1ccc(-c2n[nH]cc2-c2ccnc3ccccc23)nc1, “log2 fold change” read 1.5 (kinase binding, competitor, MIB/MS competition, refers to: FPK1; Candida albicans cell lysate; 1 µM; relative to: DMSO).
Under “best response partial response”, CN[C@@H](C)C(=O)N[C@H]1CN(S(=O)(=O)c2cccc(S(=O)(=O)N3CC[C@H]4CC[C@@H](C(=O)NC(c5ccccc5)c5ccccc5)N4C(=O)[C@@H](NC(=O)[C@H](C)NC)C3)c2)CC[C@H]2CC[C@@H](C(=O)NC(c3ccccc3)c3ccccc3)N2C1=O is recorded as 20% (RECIST 1.1; advanced pancreatic cancer patients; dose not given, efficacy-evaluable, together with: AG).
The inhibition of CNCc1cc(-c2ccccc2F)n(S(=O)(=O)c2cccnc2)c1 is reported as 59% (indomethacin-induced gastric lesions; rat; oral, 2 mg/kg; relative to: vehicle).
COc1cc(Nc2ncc3c(n2)-c2ccc(Cl)cc2C(c2c(F)cccc2OC)=NC3)ccc1C(=O)O: “median response score” 0 (mice, SK-N-AS neuroblastoma xenograft; 20.8 mg/kg; direction not given).
With Cc1ccc(C(=O)OCc2ccc([C@@H](CN)C(=O)Nc3ccc4cnccc4c3)cc2)c(C)c1 the IOP was 33.8 mmHg (tonometry; NZW rabbit, magnetic bead-induced ocular hypertension; ocular, 0.02%, 4 h).
Under “tracer distribution volume”, O=C(OC(C(F)(F)F)C(F)(F)F)N1CCN(Cc2cccc(Oc3ccccc3)c2)CC1 is recorded as 0.808 mL/cm3 (PET; rhesus monkey, pons; intravenous, 0.3 mg/kg, pretreatment blocking, together with: [18F]T-401).
The GFAP-positive area of O=P(O)(O)C(Cl)(Cl)P(=O)(O)O is reported as 7.02% (astrogliosis, immunostaining; Mus musculus, subarachnoid haemorrhage model, hippocampal fissure; dose not given, day 7; relative to: total area).
O=C1Nc2cc3[nH]nc(-c4ccncc4)c3cc2CN1Cc1ccccc1: “progressive disease, best response” 100% (RECIST v1.1; human, relapsed or refractory advanced solid tumours; intravenous, 0.9 mg/kg, pooled schedules).
With CCCCC1C(=O)N(c2ccccc2)N(c2ccccc2)C1=O the inhibition was 26.5% (carrageenan paw oedema; albino rat; oral, 25 mg/kg, 3 h).
For Cc1cc(C)c(CNC(=O)c2cc(Cl)c3c(c2C)O[C@@](C)([C@H]2CC[C@H](N(C)C)CC2)O3)c(=O)[nH]1, “best overall response CR” read 38.5% (relapsed/refractory NHL patients, PTCL; oral, dose not given).
Under “time above HEXIM1 threshold”, COc1nnc2ccc(N3CCC(c4ccc(OCCN5CCN(C)C(=O)[C@H]5C)cc4)CC3)nn12 is recorded as 0 h (human patients; 5 mg once daily, 2-fold above baseline).
With O=C(O)CNC(=O)Cc1ccccc1 the sarcomere length was 1.7 µm (ventricular cardiomyocytes, C57BL/6 mouse; dose not given, 0.792 s).
CC(C)[C@H](C(=O)Nc1ccc(C(=O)NO)cc1)c1ccccc1 gave a tumour volume of 0.0157 cm³ (volumetric MRI; human, right internal auditory canal; dose not given, 358 days).
Cc1cc(C)c(CNC(=O)c2cc(Cl)c3c(c2C)O[C@@](C)([C@H]2CC[C@H](N(C)C)CC2)O3)c(=O)[nH]1 — result for “best response not evaluable”: 0% (IWG criteria; relapsed/refractory PTCL-NOS patients; dose not given).
For COc1ncnn2ccc(-c3cnc4nc(C)n(Cc5nnc([C@@H](C)F)o5)c4c3)c12, “best overall response PR” read 0% (relapsed or refractory AML or MDS patients; dose not given).
For C[C@H]1C[C@H]2CSC(N)=N[C@@]2(c2nc(NC(=O)c3ccc(OC(F)F)cn3)cs2)CO1, “percent change from baseline” read -80.9% (refers to: Aβ1-40; healthy adults, plasma; 160 mg single dose, 8 h post-dose; relative to: placebo).
For CCOc1c([C@H](C)n2nc(C)c3c(N)ncnc32)cc(Cl)c(F)c1[C@@H]1CNC(=O)C1, “percent change in level” read -48% (Olink proximity extension, refers to: IL-12B; human FL or MZL patients, plasma; dose not given, week 8 day 1, once-daily dosing; relative to: baseline).
C=CCn1c(=O)c2cnc(Nc3ccc(N4CCN(C)CC4)cc3)nc2n1-c1ccc2c(n1)[C@@](O)(CC)CC2: “tumour volume difference” 611 ± 16.8 mm3 (MDA-MB-231 xenograft, BALB/c nude mice; oral, 80 mg/kg once daily x 28, day 41).
For N#Cc1ccn2c(-c3ccncc3)c(-c3ccc(F)cc3)nc2c1, “log2 fold change” read 0.327 (kinase binding, competitor, MIB/MS competition, refers to: YAK1; Candida albicans cell lysate; 1 µM; relative to: DMSO).
FC(F)(F)Oc1cccc(-c2cnc3ccc(-c4ccncc4)nn23)c1 gave a tumour bioluminescence of 8.88e+09 photons/s and 5.01e+09 photons/s and 9.69e+09 photons/s and 5.79e+09 photons/s and 1.78e+10 photons/s and 1.21e+10 photons/s (mouse, MDA-MB-231-Luc xenograft; 10 mg/kg, start).
CCN1CCN(Cc2ccc(Nc3ncc(F)c(-c4cc(F)c5nc6n(c5c4)[C@H](C)CCC6)n3)nc2)CC1: “not evaluable response” 0% (human advanced solid tumours; 50 mg, phase Ia monotherapy RECIST 1.1).
COc1ccc2c(c1)CN(Cc1ccc(C(=O)O)cc1)CCS2: “forelimb grip strength” 0.151 ± 0.004 kgf (exercised mdx mice; 10 mg/kg, 3 weeks).
COc1cc(O)c(CC=C(C)C)c(O)c1C(=O)/C=C/c1ccc(O)cc1 gave a blood glucose of 225 mg/dL (glucose tolerance test; Tac:SW mice (male, conventional, high-fat diet); in diet, 60 mg/kg per day, 120 min after glucose, after 10 weeks).
NC(=O)c1cnc2[nH]ccc2c1N[C@@H]1[C@@H]2CC3C[C@H]1C[C@@](O)(C3)C2: “change from baseline” -0.8% (flow cytometry, refers to: CD4+ central memory T cells; Japanese healthy subjects, peripheral blood; oral, 100 mg twice daily, day 7).
With N#Cc1ccc2c(c1)[C@H]1CCCN(C(=O)c3ccc4[nH]cnc4c3)[C@H]1C2 the plasma level was 270 nmol/L (refers to: cortisol; human, Phase II trial; oral, 240 mg once daily, last treatment, HPA axis, mean).
Under “log2 fold change”, Cc1n[nH]c2ccc(-c3cc(OC[C@@H](N)Cc4ccccc4)cnc3-c3ccoc3)cc12 is recorded as 0.148 (kinase binding, competitor, MIB/MS competition, refers to: MKK2; Candida albicans cell lysate; 100 nM; relative to: DMSO).
CCCCCN1C[C@H](O)[C@@H](O)[C@H](O)[C@@H]1CO: “decreased sphingolipid species” 21 (Hexb-/- mouse, plasma; 300 mg/kg/day, unit not given; relative to: untreated).
For O=C(O)C1=CC(=C(c2ccc(O)c(C(=O)O)c2)c2ccc(O)c(C(=O)O)c2)C=CC1=O, PD-1 expression read “no effect” (flow cytometry; C57BL/6J mouse MC-38 tumour, tumour-infiltrating CD8+ T cells; peritumoral, dose not given, 2 cycles; relative to: vehicle).
Under “full-length AR protein level”, CC(=O)O[C@@]12CO[C@@H]1C[C@H](O)[C@@]1(C)C(=O)[C@H](O)C3=C(C)[C@@H](OC(=O)[C@H](O)[C@@H](NC(=O)OC(C)(C)C)c4ccccc4)C[C@@](O)([C@@H](OC(=O)c4ccccc4)[C@H]21)C3(C)C is recorded as “decreased” (Western blot; male NRG mouse, CWR22Rv1 xenograft, tumour; dose not given, day 16).
N#Cc1ccc2c(c1)[C@H]1CCCN(C(=O)c3ccc4[nH]cnc4c3)[C@H]1C2 — result for “total urinary corticosteroids”: 92.6 % change (human, urine; 40 mg, 24 h, day 1 over day -1; relative to: placebo and baseline).
Under “log2 fold change”, N#Cc1ccc2c(-c3ccncc3)c(-c3ccc(F)cc3)nn2c1 is recorded as -0.277 (kinase binding, competitor, MIB/MS competition, refers to: NIK1; Candida albicans cell lysate; 100 nM; relative to: DMSO).
For OC[C@H]1O[C@@H](c2ccc(Cl)c(Cc3ccc(O[C@H]4CCOC4)cc3)c2)[C@H](O)[C@@H](O)[C@@H]1O, “diastolic blood pressure change” read -0.2 mmHg (Japanese type 1 diabetes patients; 2.5 mg, day 28, 672 h; relative to: baseline).
With CC(C)NCC(O)c1ccc(O)c(O)c1 (stereo not drawn) the sarcomere length was 1.68 µm (ventricular cardiomyocytes, C57BL/6 mouse; dose not given, 0.788 s).
CCc1c(C)nc(-c2ccc(Cl)s2)nc1Nc1ccc(CC(=O)O)cc1: PPAR-gamma expression “no effect” (C57BL/6J mouse, MCD diet MASH model, liver; intraperitoneal, 0.3 mg/kg daily, MCD diet 6 weeks, dosed final two weeks; relative to: untreated).
For C[C@H](CS)C(=O)N1CCC[C@H]1C(=O)O, the Leu-enkephalin concentration was 619 pM and 792 pM and 1600 pM and 1360 pM and 998 pM and 741 pM (LC-MS/MS, refers to: extracellular Leu-enkephalin; mouse striatal brain slices; 10 µM, 20 min, together with: 50 mM KCl).
Under “CHAC1 mRNA change”, O=C(COc1ccc(Cl)cc1)NC12CC(c3nnc([C@H]4C[C@@H](OC(F)(F)F)C4)o3)(C1)C2 is recorded as -75.5% (healthy human, PBMC; 200 mg once daily, day 14, 4 h post-dose, median, together with: sodium arsenite ex vivo; relative to: baseline).
The EC50 of CC1(C)CCC(c2ccc(Cl)cc2)=C(CN2CCN(c3ccc(C(=O)NS(=O)(=O)c4ccc(N[C@H](CCN5CCOCC5)CSc5ccccc5)c(S(=O)(=O)C(F)(F)F)c4)cc3)CC2)C1 is reported as 17 nM (cell kill; primary neoplastic T lymphocytes, dog 20; 24 h, multicentric intermediate-large T-cell lymphoma).
For C[C@H](Oc1ccc(Br)cc1-c1ccon1)C(=O)O, “peak amplitude change” read -2.48% (muscle velocity recovery cycles; human, tibialis anterior muscle; 200 mg once daily, multiple doses, 30 Hz train for 30 s; relative to: placebo).
C[C@H]1O[C@@H](O[C@H]2CC[C@@]3(C)[C@@H](CC[C@]4(C)[C@@H]3C=C[C@]35OC[C@@]6(CCC(C)(C)C[C@H]63)[C@@H](O)C[C@]54C)[C@]2(C)CO)[C@H](O)[C@@H](O[C@@H]2O[C@H](CO)[C@@H](O)[C@H](O)[C@H]2O)[C@H]1O has a triglyceride level of 0.942 mM and 1.14 mM and 0.827 mM and 0.748 mM and 0.958 mM and 0.994 mM (chronic-plus-binge ethanol mice, plasma; oral, 5 mg/kg/day for 7 d, 168 h).
CCCCc1nc2c(N)nc3ccccc3c2n1Cc1ccc(CN)cc1 has a concentration of roughly 10 µM (IFN-γ release, ELISA; PBMC, human; 24 h).
For OC(CCN1CCCCC1)(c1ccccc1)C1CC2C=CC1C2 (stereo not drawn), “change, EEG Delta power, in Fz-Cz” read 37% (resting-state EEG; healthy elderly humans; oral, 4 mg, eyes open, LS mean; relative to: baseline).
Nc1cccc2c1CN(C1CCC(=O)NC1=O)C2=O (stereo not drawn) — result for “exchange rate constant”: -0.0349 h⁻¹ (deuterium-hydrogen exchange; aqueous phosphate buffer; pH 7.4, 37 °C).
With CN[C@@H]1COc2c(S(=O)(=O)NC(=O)Nc3c4c(cc5c3CCC5)CCC4)cnn2C1 the inhibition was 70.2% (refers to: IL-1β; human participants, whole blood ex vivo; 150 mg single dose, 24 h, together with: LPS/ATP; relative to: baseline).
Cc1c(C)n(Cc2cccc(OC(C)(C)C(=O)O)c2)c2ccc(C(=O)N[C@@H](C)c3ccc(C(C)(C)C)cc3)cc12 gave a bone volume of 0.598 ± 0.088 mm3 (C57BL/6 mouse, diet-induced obesity, proximal tibia; dose not given).
The not evaluable of C[C@H](NC(=O)c1c(C(F)F)nn(C)c1Oc1cccc(C(F)(F)F)c1)c1ccc(C(=O)O)cc1 is reported as 42.9% (irRECIST; human, advanced tumours; 500 mg; best overall response).
For CCO[C@H]1CCN(Cc2c(OC)cc(C)c3[nH]ccc23)[C@H](c2ccc(C(=O)O)cc2)C1, “C3d-positive type III RBCs” read -0.7% (PNH patients, blood; oral, 25 mg then 100 mg, week 2, mean absolute change; relative to: baseline).

Some of these lines once more:
For CN1CC[C@@H](c2c(O)cc(O)c3c(=O)cc(-c4ccc(C(F)(F)F)cc4Cl)oc23)[C@@H]1CO, “significantly deregulated genes” read 50 genes (RNA-seq; PBMC, human, AML; 100 to 200 mg, 8 days, 6 patients).
FC(F)(F)Oc1cccc(-c2cnc3ccc(-c4ccncc4)nn23)c1 gave a tumour bioluminescence of 8.88e+09 photons/s and 5.01e+09 photons/s and 9.69e+09 photons/s and 5.79e+09 photons/s and 1.78e+10 photons/s and 1.21e+10 photons/s (mouse, MDA-MB-231-Luc xenograft; 10 mg/kg, start).
COc1cc(Nc2ncc3c(n2)-c2ccc(Cl)cc2C(c2c(F)cccc2OC)=NC3)ccc1C(=O)O: “median response score” 0 (mice, SK-N-AS neuroblastoma xenograft; 20.8 mg/kg; direction not given).
